Assay results pooled from the literature.
Parts stem from different laboratories: compare values within a part only. Changes are numbered by the printed parent chain.
Sequence of UniProt P14616 (whole entry, looked up): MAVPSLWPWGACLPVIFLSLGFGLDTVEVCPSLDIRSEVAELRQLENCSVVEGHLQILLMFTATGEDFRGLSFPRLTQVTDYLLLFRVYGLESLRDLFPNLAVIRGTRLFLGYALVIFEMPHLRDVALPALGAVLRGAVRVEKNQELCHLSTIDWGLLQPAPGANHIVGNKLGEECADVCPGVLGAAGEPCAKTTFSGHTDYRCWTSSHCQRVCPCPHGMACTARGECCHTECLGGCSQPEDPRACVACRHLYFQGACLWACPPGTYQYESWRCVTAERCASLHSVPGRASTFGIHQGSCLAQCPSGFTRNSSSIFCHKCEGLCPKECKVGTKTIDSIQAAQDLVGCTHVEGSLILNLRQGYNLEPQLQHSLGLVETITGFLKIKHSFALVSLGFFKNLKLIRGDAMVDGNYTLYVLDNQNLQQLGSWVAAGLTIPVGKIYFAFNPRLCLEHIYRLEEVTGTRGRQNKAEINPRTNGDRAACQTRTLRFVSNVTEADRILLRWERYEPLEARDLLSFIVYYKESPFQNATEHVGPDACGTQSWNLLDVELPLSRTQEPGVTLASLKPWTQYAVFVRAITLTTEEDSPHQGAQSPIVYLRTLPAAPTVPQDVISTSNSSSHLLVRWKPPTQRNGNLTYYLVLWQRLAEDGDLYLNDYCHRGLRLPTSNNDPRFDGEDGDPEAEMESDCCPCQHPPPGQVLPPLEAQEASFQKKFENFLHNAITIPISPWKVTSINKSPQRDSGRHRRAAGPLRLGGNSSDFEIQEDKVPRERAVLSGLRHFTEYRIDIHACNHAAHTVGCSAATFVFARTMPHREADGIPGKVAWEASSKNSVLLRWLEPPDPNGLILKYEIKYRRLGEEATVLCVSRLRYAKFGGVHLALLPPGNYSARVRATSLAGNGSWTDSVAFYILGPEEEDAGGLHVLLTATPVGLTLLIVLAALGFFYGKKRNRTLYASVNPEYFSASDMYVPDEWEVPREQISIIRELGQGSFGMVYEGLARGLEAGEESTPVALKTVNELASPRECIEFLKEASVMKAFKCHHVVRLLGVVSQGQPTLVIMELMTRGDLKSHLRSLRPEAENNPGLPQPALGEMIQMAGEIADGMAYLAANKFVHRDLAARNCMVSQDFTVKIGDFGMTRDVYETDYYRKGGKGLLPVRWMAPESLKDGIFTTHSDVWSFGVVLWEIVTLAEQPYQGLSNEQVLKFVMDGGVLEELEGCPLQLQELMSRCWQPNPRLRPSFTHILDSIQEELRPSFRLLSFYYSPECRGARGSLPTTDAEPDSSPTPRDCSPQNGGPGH
Sequence of UniProt P54756 (whole entry, looked up): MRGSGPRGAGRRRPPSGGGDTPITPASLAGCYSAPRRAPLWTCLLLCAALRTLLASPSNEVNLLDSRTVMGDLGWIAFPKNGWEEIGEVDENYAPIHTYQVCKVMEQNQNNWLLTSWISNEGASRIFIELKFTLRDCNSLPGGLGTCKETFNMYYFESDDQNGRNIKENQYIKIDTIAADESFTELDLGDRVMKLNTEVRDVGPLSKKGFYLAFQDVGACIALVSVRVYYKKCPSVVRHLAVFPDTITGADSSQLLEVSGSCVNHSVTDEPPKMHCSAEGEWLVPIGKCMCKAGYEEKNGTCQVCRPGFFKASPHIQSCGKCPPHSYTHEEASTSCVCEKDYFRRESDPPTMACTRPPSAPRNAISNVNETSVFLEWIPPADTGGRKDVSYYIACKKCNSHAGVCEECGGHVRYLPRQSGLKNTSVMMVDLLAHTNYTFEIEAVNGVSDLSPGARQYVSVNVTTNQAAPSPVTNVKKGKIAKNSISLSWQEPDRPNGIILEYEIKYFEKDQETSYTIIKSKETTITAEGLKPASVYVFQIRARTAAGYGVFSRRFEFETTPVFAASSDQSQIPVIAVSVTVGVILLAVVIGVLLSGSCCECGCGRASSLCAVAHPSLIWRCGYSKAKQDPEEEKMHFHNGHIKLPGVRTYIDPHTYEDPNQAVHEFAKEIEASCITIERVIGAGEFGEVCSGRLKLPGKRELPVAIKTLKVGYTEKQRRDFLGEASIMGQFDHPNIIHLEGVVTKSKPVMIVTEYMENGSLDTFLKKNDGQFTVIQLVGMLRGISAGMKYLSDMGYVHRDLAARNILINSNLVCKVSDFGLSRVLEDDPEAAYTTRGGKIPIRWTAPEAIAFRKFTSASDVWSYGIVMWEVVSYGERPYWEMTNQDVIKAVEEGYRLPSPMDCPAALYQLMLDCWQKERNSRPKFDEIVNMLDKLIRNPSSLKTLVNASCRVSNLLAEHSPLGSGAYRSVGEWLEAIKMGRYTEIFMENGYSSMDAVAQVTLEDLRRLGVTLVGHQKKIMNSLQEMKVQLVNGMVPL
Sequence of UniProt P42336 (whole entry, unmodified, looked up): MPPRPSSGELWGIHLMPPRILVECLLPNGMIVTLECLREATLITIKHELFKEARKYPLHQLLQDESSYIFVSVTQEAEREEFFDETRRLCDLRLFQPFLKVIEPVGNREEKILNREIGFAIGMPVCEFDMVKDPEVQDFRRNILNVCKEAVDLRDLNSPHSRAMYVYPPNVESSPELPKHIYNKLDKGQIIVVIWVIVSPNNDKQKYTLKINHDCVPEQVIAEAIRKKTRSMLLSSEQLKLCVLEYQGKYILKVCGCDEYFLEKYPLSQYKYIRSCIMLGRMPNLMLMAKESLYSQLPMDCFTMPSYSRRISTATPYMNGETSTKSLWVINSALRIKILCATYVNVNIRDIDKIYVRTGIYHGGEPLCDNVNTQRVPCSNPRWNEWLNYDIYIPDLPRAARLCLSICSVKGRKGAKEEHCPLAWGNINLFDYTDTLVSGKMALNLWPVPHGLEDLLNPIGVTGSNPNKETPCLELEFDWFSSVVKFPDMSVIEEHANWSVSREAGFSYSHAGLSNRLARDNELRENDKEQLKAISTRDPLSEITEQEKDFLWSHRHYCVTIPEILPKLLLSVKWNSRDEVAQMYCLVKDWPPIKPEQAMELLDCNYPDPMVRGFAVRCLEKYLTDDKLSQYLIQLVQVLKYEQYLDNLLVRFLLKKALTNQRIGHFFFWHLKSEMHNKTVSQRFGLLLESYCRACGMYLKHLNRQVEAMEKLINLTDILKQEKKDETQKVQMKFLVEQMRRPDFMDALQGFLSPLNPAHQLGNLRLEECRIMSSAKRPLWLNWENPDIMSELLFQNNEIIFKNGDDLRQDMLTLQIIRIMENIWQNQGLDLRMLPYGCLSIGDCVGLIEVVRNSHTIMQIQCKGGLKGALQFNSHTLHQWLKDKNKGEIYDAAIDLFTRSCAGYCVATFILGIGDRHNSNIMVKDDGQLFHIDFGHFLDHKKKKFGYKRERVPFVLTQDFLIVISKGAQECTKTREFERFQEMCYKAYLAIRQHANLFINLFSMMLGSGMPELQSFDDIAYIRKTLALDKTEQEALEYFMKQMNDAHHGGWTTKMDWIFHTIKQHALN
Sequence of UniProt Q9HBH9 (whole entry, looked up): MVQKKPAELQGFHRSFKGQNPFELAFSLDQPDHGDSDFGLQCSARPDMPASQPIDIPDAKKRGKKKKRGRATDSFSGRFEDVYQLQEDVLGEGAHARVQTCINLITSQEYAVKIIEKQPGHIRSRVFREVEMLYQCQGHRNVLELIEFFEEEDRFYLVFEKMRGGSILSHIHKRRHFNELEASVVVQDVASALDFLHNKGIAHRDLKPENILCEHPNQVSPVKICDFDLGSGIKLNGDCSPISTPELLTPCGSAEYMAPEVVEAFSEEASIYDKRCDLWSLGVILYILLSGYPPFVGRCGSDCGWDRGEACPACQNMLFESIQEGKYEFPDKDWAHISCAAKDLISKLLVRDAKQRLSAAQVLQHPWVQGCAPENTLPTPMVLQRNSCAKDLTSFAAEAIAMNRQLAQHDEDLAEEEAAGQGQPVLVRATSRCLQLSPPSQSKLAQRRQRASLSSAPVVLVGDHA

Series 1
SMILES: N#CC1(c2ccccn2)CCN(Cc2cc(C(=O)O)c(=O)n3ccccc23)CC1
Read-out: cell-free assay
Method: competition with immobilised ligand
Tested at: 1 µM
| target | remaining binding |
| --- | --- |
| Phosphatidylinositol 4,5-bisphosphate 3-kinase catalytic subunit alpha isoform (PIK3CA, Homo sapiens, UniProt P42336, Q546K) | 58% |
| Epidermal growth factor receptor (EGFR, Homo sapiens, UniProt P00533, T790M) | 100% |
| Insulin receptor-related protein (INSRR, Homo sapiens, UniProt P14616) | 97% |
| Ephrin type-A receptor 5 (EPHA5, Homo sapiens, UniProt P54756) | 89% |

Series 2
Target: vanadate, free oxyanion
Method: microfluidic competitive inhibition
Sample: in vitro, cell-free expressed
Tested at: not given
Setting: derived from inhibition constants, unchanged parent 676 nM
Direction: lower = stronger binding
Starting sequence: PafA, mature enzyme, eGFP fusion (Elizabethkingia meningoseptica, UniProt Q9KJX5); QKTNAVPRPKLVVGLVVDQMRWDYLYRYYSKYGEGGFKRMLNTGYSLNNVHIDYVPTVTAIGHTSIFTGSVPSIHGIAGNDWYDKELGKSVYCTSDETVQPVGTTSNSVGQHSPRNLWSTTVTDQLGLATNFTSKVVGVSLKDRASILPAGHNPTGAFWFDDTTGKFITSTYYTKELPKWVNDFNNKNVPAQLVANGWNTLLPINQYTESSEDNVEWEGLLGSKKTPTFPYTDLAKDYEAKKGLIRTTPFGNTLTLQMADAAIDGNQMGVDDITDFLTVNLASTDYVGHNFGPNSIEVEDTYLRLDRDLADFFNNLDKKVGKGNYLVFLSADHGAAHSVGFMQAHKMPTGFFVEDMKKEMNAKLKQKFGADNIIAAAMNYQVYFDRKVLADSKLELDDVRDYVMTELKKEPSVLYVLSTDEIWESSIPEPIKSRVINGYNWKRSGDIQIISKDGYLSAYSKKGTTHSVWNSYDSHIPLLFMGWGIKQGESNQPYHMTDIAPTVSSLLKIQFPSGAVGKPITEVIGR
| Variant | oxyanion analog dissociation constant [nM] |
| --- | --- |
| M347V | 684 |
| G110A | 690 |
| V320G | 613 |
| Q487G | 644 |

Series 3
Target: His6 tag
Method: AlphaScreen counter screen
Tested at: concentration not given
| SMILES | inhibition |
| --- | --- |
| COC(=O)CSc1ccc2nnc(-c3cccc(F)c3)n2n1 | 6.35% |
| CCC(Sc1ccc2nnc(-c3ccc(OC)c(OC)c3)n2n1)C(=O)OC (centres unmarked) | 8.95% |
| CNC(=O)c1cc(Oc2ccc(NC(=O)Nc3ccc(Cl)c(C(F)(F)F)c3)c(F)c2)ccn1 | 6.65% |
| NC1(C(=O)N[C@@H](CCO)c2ccc(Cl)cc2)CCN(c2ncnc3[nH]ccc23)CC1 | 17.3% |
| O=C(NCC1CCCO1)c1n[nH]c2ccccc12 (centres unmarked) | -0.275% |
| O=C(CSc1ccc2nnc(-c3ccc(Cl)cc3)n2n1)NCC1CCCO1 (centres unmarked) | -7.8% |
| OC1CCCN(Cc2c(-c3ccco3)[nH]c3ncccc23)C1 (centres unmarked) | 12.6% |
| COc1cccc(C(=O)c2sc(Nc3ccc(F)c(Cl)c3)nc2N)c1 | 3.15% |

Single results of other studies
| SMILES | target | read-out | mode | quantity | value |
| --- | --- | --- | --- | --- | --- |
| CNC(=O)c1ccc(-c2cnn3ccc(C(=O)N(C)c4ccc(Cl)c(C(=O)O)c4)cc23)cc1 | MAP kinase-interacting serine/threonine-protein kinase 2 (MKNK2, Homo sapiens, UniProt Q9HBH9) | enzyme activity | inhibitor | IC50 | > 30 µM |
